Measured values gathered from unrelated publications.
Numbered parts are unrelated; each lists some results of a single study.

Sample 1
Target: RING finger protein unkempt homolog, zinc fingers 1-6, GST-SBP tag (UNK, Homo sapiens, UniProt Q9C0B0, residues 30-357)
Method: RNA Bind-n-Seq
Form: RNA
Sample: in vitro
Concentration: not given
Setting: RNA with constant flanks, human and mouse sites, ends assumed
Reference: input RNA pool
Reading: higher = stronger binding
All sequences stand within: GGGAGUUCUACAGUCCGACGAUC … CAACAGAGGAUUGAGCAUCA
Construct (chain): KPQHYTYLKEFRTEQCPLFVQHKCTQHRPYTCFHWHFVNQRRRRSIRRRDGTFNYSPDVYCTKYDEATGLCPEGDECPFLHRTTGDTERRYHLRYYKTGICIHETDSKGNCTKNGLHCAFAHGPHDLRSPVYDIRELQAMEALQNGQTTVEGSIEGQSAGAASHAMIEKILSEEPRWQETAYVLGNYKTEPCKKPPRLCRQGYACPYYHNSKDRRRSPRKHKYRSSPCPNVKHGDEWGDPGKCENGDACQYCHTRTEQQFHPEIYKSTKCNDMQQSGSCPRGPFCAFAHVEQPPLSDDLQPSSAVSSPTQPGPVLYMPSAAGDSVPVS
Sequence	bound/input enrichment [ratio]
UAUGUUUACGGAGUCCUGUUUAGUUUGGCAGAAAGCAGAAAGAAAACUGAGAGACUUGCUUUUAGAAAGAACAGACUUCCACCAGAAUUCUCGCCACUGAUCAUUAAGGAGUGGGCAGCU	0.2
GGGUGGGUUUGGGGCCGGGGGCGGGUCUGGGGGCGGACCCGGAGGCGGGGCUGUCUCUGCGGCAGGGCCCAGUUCGGCUCCCCCAGUCUCUCUCUGUCUCUCCUCCUCCCUCCUCCUGCU	1.32
GAGUUGCUAAAUUUUGCUUGAAGCACUUUAAUAUAACUUGAAUAUUAUCUAUUAUAAAAGUAACUACAAAUAAGUGUUGUGAAUAGAUUUUAUUAUAAAUCAGAGAACUGUUUUCUCCCU	0.295
GAUGUAAAUCAAAUUGCCCUGUAGACUAUCUUCGUUUCACCUGCCAUUGUAUCACCAGUAUUCUUUGCAAUUGGUUGUAUAUGUACUUUUGGGAGAAACAUAUAAGGUAUUUUCCCUUGG	0.0901
CAUGUGUGUCUAUGUGUCUCUUGUUUUUCUUGCAUGUGUAUAUGUGUACUGCUUAUACACCUUAGUCUGUGGAGUUCAAAAGAAUCCAUUGUUUAACCUGGAUGGUUGUGAGUCAGUAUG	0.404
AAGUGGGGUGACGAGGUGGAGUACAUGUUGGUGUCCUUCGAUCAUGAAAAUAGGAAAGUCCAGUUGUUACUGAAUGGAGGCGAUGUUCUUGAGACUCUGCAGGAGAAGGGGGAGAGGACA	0.772
UCUCCCAUAACAAAUGAUGGGGAAGAUGAAUUUGUUCCUUCAGAUGGCUUAGAUAAAGAUGAGUAUGCUUUUUCUUCAGGCAAAUCCAAAGCUACUCCAGAAAAAUCUUCAAAUGACAAA	0.28
UCUUAAUCAUAGUCUACCAUCAAAUACUUUAGGAGUAUCCUUAAUGUUUAGAUAGAAUAUUAGCAGCAUGCAAUAAUUACAUCCUAAGUUCUCAAGCAGAGGCAGUCUAUUGCAAGGACC	26.5
UUUAUAUUUAACUAAAUGUAAGGUACGAAUUAUUACAUAUUAAACUUUUCUUCCCCUUCCUAGUUCUGAAGUAGAUAUAUAUAUAUAUAUAUCUACUGUCACAUUCCAUAUAUUUUGAAU	31.2
CGUAGAGGGACAGAGAGCUUAGAUCACCUUGCUGGUCUUUCUCAUUAUUACCAUGCUGAUACUAGCUACAGACAUUUUCCAAAAUCUGAGAAGUAUAGCAUCAGUAGACUCACACUUGAA	0.128
AUGGCAACAUCAGAAGCACUCAAGAUUUCCAGAGAGGUAGAUCCAGAUGGGCGCAGAACUCUAGCUGUAAUCACUAAACUUGAUCUCAUGGAUGCGGGUACUGAUGCCAUGGAUGUAUUG	0.182

Sample 2
Target: Interferon regulatory factor 7, full length, phosphomimetic (IRF7, Homo sapiens, UniProt Q92985, residues 1-503, S471D/S472D/S475D/S476D/S477D/S483D/S484D/S487D)
Method: protein-binding microarray
Form: double-stranded DNA, one strand shown
Sample: in vitro
Concentration: 2200 nM top
Setting: 60-bp whole probe
Together with: salmon DNA 0.4 mg/ml
Reference: random background probes
Reading: higher = stronger binding
All sequences stand within: GCCTAGCAC … GTCTTGATTCGCTTGACGCTGCTG
Target sequence (chain): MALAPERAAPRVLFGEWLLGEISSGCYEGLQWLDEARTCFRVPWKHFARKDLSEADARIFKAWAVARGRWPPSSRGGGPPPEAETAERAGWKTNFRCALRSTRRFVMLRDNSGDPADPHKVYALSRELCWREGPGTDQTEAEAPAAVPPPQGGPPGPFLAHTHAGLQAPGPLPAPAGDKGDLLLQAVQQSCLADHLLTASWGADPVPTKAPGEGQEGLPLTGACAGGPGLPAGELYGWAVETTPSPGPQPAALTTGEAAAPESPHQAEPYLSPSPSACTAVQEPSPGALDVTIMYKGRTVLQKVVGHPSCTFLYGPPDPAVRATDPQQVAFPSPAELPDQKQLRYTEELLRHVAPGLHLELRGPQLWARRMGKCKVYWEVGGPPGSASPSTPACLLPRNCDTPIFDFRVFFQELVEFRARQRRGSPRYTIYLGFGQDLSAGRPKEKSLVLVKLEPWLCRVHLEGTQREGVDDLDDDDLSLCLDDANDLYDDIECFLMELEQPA
Sequence	fitted relative affinity [z-score]
TCAACAATGATGTTTTGAACTGTGCTA	0.00334
TTAGATATCAGTCTCAATTAGTGCTAG	-0.184
GACGGCTTCCTTCTCCTGACGTGCTAG	1.03
TTAGGACTGAGTTTCGATTAGTGCTAG	3.68
TTAGGTCTCGGTATCGATTAGTGCTAG	0.558
CTAGGTTTCCTTCTCCTTTAGTGCTAG	2.28
TCAAAACTAAGTTTATTACTGTGCTAG	-0.247
GACGATCTCAGACTGGCGACGTGCTAG	-0.0117
GACGAATTCGGGACTGGAGACGTGCTA	-0.19
TTAGGTATTGGTATCGGTTAGTGCTAG	0.783
GACAAACTGGGGTATCGAGACGTGCTA	0.147
GACGGTATCCTACTGCTGAAGTGCTAG	0.583
TTAGATCGCAGTTTCGATTAGTGCTAG	5.06
TGAGCTACAGATGAGGCTCGGTGCTAG	-0.112
GCCGGTCTCCTTCTCCTGACGTGCTAG	0.706
TTTTTTTTTTTTTCTGATCCGTGCTAG	2.62
GGACGAGCGACGGTGACACTGTGCTAG	-0.634
GACGGTTTCGACAATGGGGACGTGCTA	1.98
CTAGGACTGGGGACTGGGTTAGTGCTA	-1.26
TTAGGTTTCCTACTGCTTGAGTGCTAG	1.03
GACGGTATCCTTATCCGGACGTGCTAG	0.735
TTAGATATCCTTTTCCTTTAGTGCTAG	1.77
TTAGCTCTCAGTTTCGATTAGTGCTAG	5.38
GACGGTATCGGACTGGGAACGTGCTAG	-0.46

Sample 3
Target: Histone acetyltransferase KAT6A, winged helix 1, GST fusion (KAT6A, Homo sapiens, UniProt Q92794, residues 1-85)
Method: protein binding microarray
Form: double-stranded DNA, one strand shown
Sample: in vitro
Concentration: not given
Setting: 8-mer, flanks averaged, mean of 2 arrays, mostly near background
Reference: not given
Reading: higher = stronger binding
Target sequence (chain): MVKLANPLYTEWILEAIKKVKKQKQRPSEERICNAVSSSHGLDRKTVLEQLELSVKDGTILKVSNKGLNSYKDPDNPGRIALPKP
Sequence	E-score
ATCCCCAT	-0.115
CCATACCA	-0.154
GTGCACCA	-0.184
GGGGTCCA	-0.0115
GGAGCCGA	0.175
CAGAAGAC	-0.298
AGCACGCT	-0.0278
ACGTTTAG	-0.156
CGGTAACA	0.272
ACTGTGGC	-0.213
ACCTAGGG	-0.0553
GGGCAGGA	-0.137
AGCTGTAC	-0.0121
CGGGCCCG	0.438
ATATACAA	-0.124
GTCACACA	-0.139
AGAGCGCA	0.211
ACCGATTC	0.0668
AGAAACTA	-0.102
GCTTACAA	-0.0542
CATGCATG	-0.0808

Sample 4
Target: Sal-like protein 4, full length isoform B (SALL4, Homo sapiens, UniProt Q9UJQ4-2, residues 1-616)
Method: universal PBM
Form: double-stranded DNA, one strand shown
Sample: in vitro
Concentration: not given
Setting: 8-mer, flanks averaged, mean of replicates
Reading: higher = stronger binding
Sequence	E-score
GCAGGACC	-0.302
CCCATTGA	-0.113
CCTCCATC	-0.243
CGTAGCAA	0.0265
AGTTAACT	-0.0678
GAGGATAA	0.0926
GACCGTGC	-0.279
ATTTCAAA	0.303
GCCCTACC	-0.13
TCCTTCCA	-0.00248
GATTACCA	-0.13
CCCAGGCG	-0.325
CACAATTC	0.172
TCTTGGCA	-0.0921
TCATAAAA	0.373
ACGGACTC	-0.117
AGGAATTG	0.131
GCGGTTCC	-0.159
AAAACTCA	0.151
GGAGTATA	0.142
CCTGACCA	0.133
CTCCAATC	-0.214
ACTCAGTG	-0.181

Sample 5
Target: Protein max, full length (MAX, Homo sapiens, UniProt P61244-2, residues 1-151)
Method: protein-binding microarray
Form: double-stranded DNA, one strand shown
Sample: in vitro
Concentration: not given
Setting: k-mer, scored over probes, only values ≥0.25
Reading: higher = stronger binding
Sequence	E-score
GAGCGTGA	0.342
TGCTGCAA	0.258
AAGACACG	0.344
AATGCACG	0.362
GGCAACAC	0.251
CCCCGCGC	0.265
AATGGCAC	0.267
AGCACGAT	0.275
CTCATGGA	0.265
ATGAGGGC	0.308
GCACCTGC	0.349
ACGTGGAA	0.43
GTGTGGGA	0.311
CCAACCAC	0.28
ACGCGTTG	0.275
ACGTTGTC	0.356
GCATGTAC	0.351
CGCATGGC	0.444
CGTGTTTA	0.396
AGATGCAC	0.287
CATGATCG	0.303

Single results of other studies
Substance	target	assay	system	conditions	scale	quantity	result
PhoQ, residues 284 288 289 292 302 303 SLGVVW	PhoP, residues 12 14 15 18 19 VQGLL (Escherichia coli, UniProt P23836)	Sort-seq, measured: YFP reporter	E. coli	PhoQ-PhoP variant library, together with: 10 µM Mg2+	reference: high Mg2+ state, higher = stronger signaling	fold induction	12.2

Excerpt of the above (sample 1):
Sequence	bound/input enrichment [ratio]
AUGGCAACAUCAGAAGCACUCAAGAUUUCCAGAGAGGUAGAUCCAGAUGGGCGCAGAACUCUAGCUGUAAUCACUAAACUUGAUCUCAUGGAUGCGGGUACUGAUGCCAUGGAUGUAUUG	0.182
UUUAUAUUUAACUAAAUGUAAGGUACGAAUUAUUACAUAUUAAACUUUUCUUCCCCUUCCUAGUUCUGAAGUAGAUAUAUAUAUAUAUAUAUCUACUGUCACAUUCCAUAUAUUUUGAAU	31.2
GGGUGGGUUUGGGGCCGGGGGCGGGUCUGGGGGCGGACCCGGAGGCGGGGCUGUCUCUGCGGCAGGGCCCAGUUCGGCUCCCCCAGUCUCUCUCUGUCUCUCCUCCUCCCUCCUCCUGCU	1.32
UAUGUUUACGGAGUCCUGUUUAGUUUGGCAGAAAGCAGAAAGAAAACUGAGAGACUUGCUUUUAGAAAGAACAGACUUCCACCAGAAUUCUCGCCACUGAUCAUUAAGGAGUGGGCAGCU	0.2
CGUAGAGGGACAGAGAGCUUAGAUCACCUUGCUGGUCUUUCUCAUUAUUACCAUGCUGAUACUAGCUACAGACAUUUUCCAAAAUCUGAGAAGUAUAGCAUCAGUAGACUCACACUUGAA	0.128
GAGUUGCUAAAUUUUGCUUGAAGCACUUUAAUAUAACUUGAAUAUUAUCUAUUAUAAAAGUAACUACAAAUAAGUGUUGUGAAUAGAUUUUAUUAUAAAUCAGAGAACUGUUUUCUCCCU	0.295
AAGUGGGGUGACGAGGUGGAGUACAUGUUGGUGUCCUUCGAUCAUGAAAAUAGGAAAGUCCAGUUGUUACUGAAUGGAGGCGAUGUUCUUGAGACUCUGCAGGAGAAGGGGGAGAGGACA	0.772
GAUGUAAAUCAAAUUGCCCUGUAGACUAUCUUCGUUUCACCUGCCAUUGUAUCACCAGUAUUCUUUGCAAUUGGUUGUAUAUGUACUUUUGGGAGAAACAUAUAAGGUAUUUUCCCUUGG	0.0901
